# Published values gathered from unrelated publications.
# A part holds a random share of what one study measured. Changes are numbered by the printed parent chain.

# Set 1
# Target: Interferon regulatory factor 3, full length, phosphomimetic (IRF3, Homo sapiens, UniProt Q14653, residues 1-427, S386D/S396D/S398D/S402D/T404D/S405D)
# Technique: protein-binding microarray
# Form: double-stranded DNA, one strand shown
# Matrix: in vitro
# Tested at: 2540 nM top
# Setting: 60-bp whole probe
# Added: salmon DNA 0.4 mg/ml
# Relative to: random background probes
# Reading: higher = stronger binding
# Constant ends, left off below: GCCTAGCAC … GTGCTAGGTCTTGATTCGCTTGACGCTGCTG
# Construct (chain): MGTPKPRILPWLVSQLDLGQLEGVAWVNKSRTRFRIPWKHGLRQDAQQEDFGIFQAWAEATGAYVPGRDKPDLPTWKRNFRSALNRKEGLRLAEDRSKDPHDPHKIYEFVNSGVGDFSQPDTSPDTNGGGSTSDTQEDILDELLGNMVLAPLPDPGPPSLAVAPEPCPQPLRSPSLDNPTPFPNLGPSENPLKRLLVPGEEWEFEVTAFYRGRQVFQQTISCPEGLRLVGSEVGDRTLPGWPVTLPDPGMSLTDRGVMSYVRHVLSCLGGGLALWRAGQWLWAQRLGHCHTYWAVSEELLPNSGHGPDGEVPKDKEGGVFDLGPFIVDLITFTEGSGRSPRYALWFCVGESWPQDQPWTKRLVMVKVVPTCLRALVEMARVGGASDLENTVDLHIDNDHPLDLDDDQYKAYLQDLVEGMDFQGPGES
Strand,fitted relative affinity [z-score]
TTAGGTTTACTTATCCTTTA,1.84
GACAGTCTCCTTTTCCTGAC,5.68
CACGAACTGAGACTGGAGAC,-0.274
TTAGGTTCCCTTATCCTTTA,4.44
TCAGGTATTTTTTTCTAACT,0.538
TCAGTTTCCAGTATATTACT,4.98
GACGGTAGCGGTTTCGGGAC,3.11
GGCCAAACAGTATTAAACTC,-0.285

# Set 2
# Target: DDIT3, bZIP domain (human)
# Technique: DHFR protein complementation
# Matrix: yeast
# Setting: single substitutions, most at no-binding floor
# Relative to: wild-type JUN-FOS pair
# Reading: higher = stronger binding
# Starting sequence: JUN, bZIP domain (human); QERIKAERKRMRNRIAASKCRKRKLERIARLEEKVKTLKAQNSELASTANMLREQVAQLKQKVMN; partner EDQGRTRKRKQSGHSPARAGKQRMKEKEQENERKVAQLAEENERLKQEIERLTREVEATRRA
Change,binding fitness [natural log]
R53N,-0.63
I28R,-0.0714
E33C,-0.205
E33W,-0.191
T37I,0.107
M51R,0.098
I28F,-0.122
E44K,-0.0824

# Set 3
# Target: Hepatocyte nuclear factor 3-alpha (Foxa1, Mus musculus, UniProt P35582, residues 1-468, full length assumed)
# Technique: EMSA with sequencing
# Form: double-stranded DNA, one strand shown
# Matrix: in vitro
# Tested at: 10 and 20 nM
# Setting: whole designed probe, mean of two concentrations, ends assumed
# Relative to: negative control set to 0
# Reading: higher = stronger binding
# Constant ends, left off below: GTGAGCGGTGCCCATTGATGGGGAAC … TTTCACTGGGATCGTGGGGAC
# Construct (chain): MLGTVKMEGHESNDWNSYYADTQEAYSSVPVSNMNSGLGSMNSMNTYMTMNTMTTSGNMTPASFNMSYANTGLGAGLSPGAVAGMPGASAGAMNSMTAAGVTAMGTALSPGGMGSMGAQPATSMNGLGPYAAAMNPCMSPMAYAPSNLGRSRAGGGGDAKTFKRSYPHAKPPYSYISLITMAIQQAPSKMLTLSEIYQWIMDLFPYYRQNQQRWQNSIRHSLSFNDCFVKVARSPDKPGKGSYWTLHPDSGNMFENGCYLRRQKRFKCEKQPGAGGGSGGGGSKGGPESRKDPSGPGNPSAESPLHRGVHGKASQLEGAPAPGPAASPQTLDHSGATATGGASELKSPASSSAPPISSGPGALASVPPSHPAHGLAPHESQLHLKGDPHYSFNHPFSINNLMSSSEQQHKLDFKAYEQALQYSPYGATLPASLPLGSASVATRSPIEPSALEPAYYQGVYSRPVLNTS
Strand,normalised bound fraction
TTTAGTACTTTAAAATTTTCCAAAGTGCTTTTCCTTGTCTTATTATAACAATTGCCAGCATTTGGTCAGCACTCTAGAGGTTATAAAGTACTTTGTGTACACTGTCTCCTATGACATCACAGCAATGCTGTGGGTTATTATTACTTGACTCATTTTGCAGGCAAGGAAGCTAAGGTTCAGGAATGCTAAATGA,0.196 ratio
CTAGTTCCAGTCTTAGCATGACAATTTCTTCCTGCAACGTACTATTTTCATGCAAGAGGTCTTTTTCTTTCTTATAACTAAGAGAAAGCTAAGTAATCTAAGGGAACTTTTAGTTAGCACTCAATAGATTGATATACCATGATTTCTTCTGAAATTAAAAAATAACATCTGTATTTGTATAATGAAAGAATCC,0.166 ratio
ATCTTCCCCCTCTTCCTTGCCCCACCAGCTCACCTTCCCGGGTTATTTGCACAAAGGAAAATAAATAAAGCCGGCATTCGTTAACGCAGTTCACGCGCATACTGCTGTTTGCTCTGCATGAATCATGGTCCTTACGCGACGCCAGGCTCCGGGAGAGCAAAGCACCGTGTCAGGCGCATGATCCGGGCTCGCC,0.386 ratio
AAAGTAATGAAATAAAAAAAACCTGTTAGCCAAGAATCCTATATCTGGCAAAACCATCCTTCAAAAATGAAGGAGAAATTAAGACATTCCTAGATAATCTAACACTGAGGGAGTTCATTGCTAGTTGGCCTGCCCTACAAGAAATACAAAATACTTCAGGCAGAAGTGAAAAAACACTAAATCTTGAAGCCAT,0.00765 ratio
TCTTTCACTCAAGTGGTATATCCCACAGCCCTAAAGAAGCAAGGGAAATAAGAATTAGAACTAGACATCCCAGGAGACAAAGAATTCAACAAAGCAAACATTAACACTTCCTGCCCAATCCCTTCACTATTTACAGAAAATCTCTCTGGCTCAGGCCGGGCAGTGAGTTCATTTATTTCAACAAAATCAAAGA,0.358 ratio
CTTGTCTACAATCCAGTATTTAATAGCAACTTCATCTACCAAGTGGGATAATGAATTACAAATGATAAGATGTGATCTCAAATGTTTTAGAAAAGTAATCTTGGGAGAAATAATTAAAAGTTGAAAGGCCTATTTGGAAAACAAAGGGAGAGTCATGGAGGTTTCTATCAAATTCCAGGGACAGGCAGTAGCA,-0.0325 ratio
CACTCATAGTCTTGCTATCCTTCATATACAGAGATGACCCTCCCAAGCCTAAAATCAACAGGGGGAGGCATAGAGCTGTCCTTCTGGCTCTAATGTTTGCTTTACCATCATCTCCACGCCCATTTAGTCCAGCATGTGAGAGCCAGTGTGAAGTGAGCAGAATATGGCATAAGTATGGAGTCATACATCCTTA,0.283 ratio
CAAGTTTGTGGTCCAGGAGCAACAGGTTATGCCATACAGCCTAGGTGTGTAGTAGGCTACACACCGTCTATGTTCCATGACTCATCTCTACAATGTTTGCACAATGATGAAATCCCATGTCACATTTCTCAGAACATACCCCTGTTGTTAAGCGATACATGACTGTACTTTTTTTAAAAAGTCCAAGGATATA,0.45 ratio

# Mixed results
SMILES,assay,test system,conditions,quantity,result
CC(C)n1cnc(-c2ccc(F)cc2)c1-c1ncc(C(=O)Nc2ccc(N3CCN(C)CC3)cc2)[nH]1,"Phase 2a trial, measured: blood alkaline phosphatase increased",idiopathic pulmonary fibrosis patients,"30 mg once daily, grade 4 maximum intensity",patients with adverse events,0%

# Repeated from above (mixed results):
SMILES,assay,test system,conditions,quantity,result
CC(C)n1cnc(-c2ccc(F)cc2)c1-c1ncc(C(=O)Nc2ccc(N3CCN(C)CC3)cc2)[nH]1,"Phase 2a trial, measured: blood alkaline phosphatase increased",idiopathic pulmonary fibrosis patients,"30 mg once daily, grade 4 maximum intensity",patients with adverse events,0%
